Measured values gathered from unrelated publications.
Several values in a cell are separate wells, animals, samples, runs or records. ± gives the spread as reported.
Sequence of UniProt Q16853 (whole entry, looked up): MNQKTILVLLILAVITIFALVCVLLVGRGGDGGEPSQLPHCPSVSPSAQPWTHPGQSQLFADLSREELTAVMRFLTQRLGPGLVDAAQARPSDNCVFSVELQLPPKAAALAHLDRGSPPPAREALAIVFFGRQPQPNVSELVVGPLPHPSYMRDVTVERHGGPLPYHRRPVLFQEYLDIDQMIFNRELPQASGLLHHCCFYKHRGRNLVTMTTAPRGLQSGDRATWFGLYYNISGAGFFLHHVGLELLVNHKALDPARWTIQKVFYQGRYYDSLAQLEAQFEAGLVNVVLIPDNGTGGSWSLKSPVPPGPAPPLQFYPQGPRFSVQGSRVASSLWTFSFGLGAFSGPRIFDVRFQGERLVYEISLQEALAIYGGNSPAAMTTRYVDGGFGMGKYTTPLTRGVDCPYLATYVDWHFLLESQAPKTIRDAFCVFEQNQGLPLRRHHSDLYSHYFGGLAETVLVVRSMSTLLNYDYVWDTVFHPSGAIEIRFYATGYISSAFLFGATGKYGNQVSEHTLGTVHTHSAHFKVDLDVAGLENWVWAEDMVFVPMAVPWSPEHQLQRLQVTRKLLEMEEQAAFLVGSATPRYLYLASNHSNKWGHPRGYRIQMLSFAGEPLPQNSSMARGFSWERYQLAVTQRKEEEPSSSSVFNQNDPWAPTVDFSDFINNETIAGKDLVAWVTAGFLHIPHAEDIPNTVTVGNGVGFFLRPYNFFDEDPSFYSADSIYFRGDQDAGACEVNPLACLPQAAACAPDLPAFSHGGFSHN

Compound | tested on | test | test system | setting | how to read | endpoint | result
CC(C)C[C@H](NC(=O)C[C@H](O)[C@H](CC(C)C)NC(=O)[C@H](Cc1c[nH]cn1)NC(=O)CNC(=O)[C@@H](NC(=O)[C@H](C)NC(=O)[C@H](Cc1c[nH]c2ccccc12)NC(=O)[C@H](CCC(N)=O)NC(=O)[C@@H](Cc1ccccc1)NC(=O)COCCOCCNC(=O)CN1CCN(CC(=O)O)CCN(CC(=O)O)CCN(CC(=O)O)CC1)C(C)C)C(N)=O [lutetium-177 labelled] | – | – | female BALB/c nu/nu mice, bone | intravenous, 50 pmol, 24 h | – | tissue uptake | 0.031 ± 0.008 %ID/g
CCn1c(=O)c2c(nc(/C=C/c3ccc(OC)c(OC)c3)n2C)n(CC)c1=O | MDCK | – | – | 1 µM, 90 min, pH 6.5 apical, 7.4 basolateral, apical to basolateral | – | Papp | 31.2 ×10⁻⁶ cm/s
CC(C)C[C@H](NC(=O)C[C@H](O)[C@H](CC(C)C)NC(=O)[C@H](Cc1c[nH]cn1)NC(=O)CNC(=O)[C@@H](NC(=O)[C@H](C)NC(=O)[C@H](Cc1c[nH]c2ccccc12)NC(=O)[C@H](CCC(N)=O)NC(=O)[C@@H](Cc1ccccc1)NC(=O)COCCOCCNC(=O)CCC(C(=O)O)N1CCN(CC(=O)O)CCN(CC(=O)O)CCN(CC(=O)O)CC1)C(C)C)C(N)=O (some centres unmarked) [lutetium-177 labelled] | – | – | female BALB/c nu/nu mice, brain | intravenous, 100 pmol, 4 h, added: PA 300 µg | – | tissue uptake | 0.011 ± 0.001 %ID/g
CC(=O)Nc1cccc(-n2c(=O)n(C3CC3)c(=O)c3c(Nc4ccc(I)cc4F)n(C)c(=O)c(C)c32)c1 | MeWo | resazurin | – | 1.56 nM, 72 h, unit not given | reference: DMSO | viability | 0.962 and 0.814
Cc1cc(C(=O)NC(C)(C)COc2cccc3c2C(N)=NS(=O)(=O)N3)cc(C)n1 | human peripheral blood lymphocytes | CBPI, preliminary test | – | 2000 µg/mL, 24 h | reference: vehicle control | cytotoxicity | -1%
CC[C@H](CO)N(CCN(N=O)[C@H](CC)CO)N=O | Escherichia coli | mutagenicity, Ames plate incorporation | WP2 uvrA pKM101 | 1500 µg/plate, without S9, methanol | – | revertant colonies per plate | 147 ± 30
CCN1/C(=C/C(C)=O)Sc2ccc(F)cc21 | – | – | cynomolgus monkey | oral, 100 mg/kg, 6 h post-dose | – | QRS duration | 36 ± 1 ms
Cn1cc(-c2ccc(-c3cncc(Cl)c3N3CCC4(CCNC4=O)CC3)cc2)cn1 | COLO 205 | gene expression, microarray, item: FABP5 mRNA | – | concentration not given, 2 h | reference: untreated cells | log2 fold change | -2.03
Cc1cc(Nc2ccc(S(F)(F)(F)(F)F)cc2)n2nc(C(C)(F)F)nc2n1 | Plasmodium vivax | 12-lead ECG | malaria patients | oral, 800 mg, increase above 60 ms | – | patients with QTcB increase | 0%
CCOc1c([C@H](C)n2nc(C)c3c(N)ncnc32)cc(Cl)c(F)c1[C@@H]1CNC(=O)C1 | – | item: QRS > 110 ms | previously treated B-cell malignancy | oral, dose not given, all doses | – | patients with high heart rate | 14.5%
NCc1cc2c(cc1F)C(=O)N(C1CCC(=O)NC1=O)C2 (centres unmarked) | AOC3 (Homo sapiens, UniProt Q16853) | substrate, LC-MS/MS | cirrhotic human liver lysate | 62.50 µM, 60 min, pH 7.4 | – | concentration | 6930 ng/mL and 7510 ng/mL

Excerpt of the above:
Compound | tested on | test | test system | setting | how to read | endpoint | result
CC(C)C[C@H](NC(=O)C[C@H](O)[C@H](CC(C)C)NC(=O)[C@H](Cc1c[nH]cn1)NC(=O)CNC(=O)[C@@H](NC(=O)[C@H](C)NC(=O)[C@H](Cc1c[nH]c2ccccc12)NC(=O)[C@H](CCC(N)=O)NC(=O)[C@@H](Cc1ccccc1)NC(=O)COCCOCCNC(=O)CN1CCN(CC(=O)O)CCN(CC(=O)O)CCN(CC(=O)O)CC1)C(C)C)C(N)=O [lutetium-177 labelled] | – | – | female BALB/c nu/nu mice, bone | intravenous, 50 pmol, 24 h | – | tissue uptake | 0.031 ± 0.008 %ID/g
